Assay results from different studies.
Parts stem from different laboratories: compare values within a part only. Changes are numbered by the printed parent chain.

Set 1 — target: CCNE2, cyclin fold, Cln2 fusion (human); technique: yeast growth competition, sequencing; sample: yeast; setting: weak parent motif; reference: not given; direction: higher = stronger binding; endpoint: normalised enrichment score
Starting sequence: KIF20B docking peptide (human); KRAKRKLYTSEIS
KRAKAKLYTSEIS [R5A]: -0.121
ARAKRKLYTSEIS [K1A]: 0.89
KRAKRKLYASEIS [T9A]: 0.431
KRAKRKAYTSEIS [L7A]: 0.372
KRAKRKLYTSAIS [E11A]: 1.05
KRAKRKLYTAEIS [S10A]: 0.0801

Set 2 — technique: protein binding microarray; molecule type: double-stranded DNA, one strand shown; sample: in vitro; concentration: not given; reference: not given; direction: higher = stronger binding; endpoint: E-score
Target: Histone acetyltransferase KAT6A, winged helix 2, GST fusion (KAT6A, Homo sapiens, UniProt Q92794, residues 85-181)
Setting: 8-mer, flanks averaged, mean of 2 arrays, mostly near background
Residues (chain): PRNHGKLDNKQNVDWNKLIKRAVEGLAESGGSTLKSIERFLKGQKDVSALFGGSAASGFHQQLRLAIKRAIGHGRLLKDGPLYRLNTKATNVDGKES
GTACTAAC: -0.118
TGGCCCAA: 0.155
CGACCCAG: 0.111
CGTAGCAC: -0.000115
CTTGTCAC: 0.117
GCTACAGA: -0.154
TACCTTGA: 0.00177
AGCAGAGC: 0.133
AAACAGGT: -0.134
AGTCGACA: -0.00503
ATTCGGAA: 0.0875
ACTCTAGG: -0.0512
CACAAGCA: 0.0611
GCGGCAGA: 0.114
CGACCAGA: -0.0288
AATTCGAT: 0.0891
GCACCGGA: 0.165
CGTTTGTC: 0.00426
GGACGTCA: -0.205
AAACCACG: -0.146
AGATCAAA: -0.00508
ATCTTGTC: 0.0119
CCTAGTCC: -0.122
AAAGGTGC: -0.124
ATGTACAG: -0.203

Set 3 — technique: protein-binding microarray; molecule type: double-stranded DNA, one strand shown; sample: in vitro; concentration: 250 nM; setting: 60-bp whole probe; added: salmon DNA 0.4 mg/ml; reference: random background probes; direction: higher = stronger binding; endpoint: log fluorescence; all sequences stand within: GCCTAGCAC … GTCTTGATTCGCTTGACGCTGCTG
Target: Interferon regulatory factor 5, full length, phosphomimetic (IRF5, Homo sapiens, UniProt Q13568-2, residues 1-514, K96S/S451D/S453D/S456D/S462D)
GACGAACTGGGTCTCGGGACGTGCTAG: -0.431 z-score
TTAGAACTGGGTACTGGATTAGTGCTA: -0.0436 z-score
TTAGATTTCAGTCTCGCTTAGTGCTAG: 2.2 z-score
TTAGATATCAGACTGGATAAGTGCTAG: 0.311 z-score
TCACAACTTTTTTTAATACTGTGCTAG: 1.01 z-score
TTAGATATCAGTCTCGATGAGTGCTAG: 1.56 z-score
TTAGACTTCAGACTGGATTAGTGCTAG: -0.134 z-score
TCACATGTTTTTTTCTAACTGTGCTAG: 1.06 z-score
TTAGGAATCCTTCTCCTTTAGTGCTAG: 0.000608 z-score
GAGCCCGGGGTGTAAGCAACGTGCTAG: -1.02 z-score
GATGGTTTCCTTTTCCTGACGTGCTAG: 1.34 z-score
TTTTGCTTTCTTTTTGCACTGTGCTAG: 6.39 z-score
GACAGACTGGGTATCGGGACGTGCTAG: 0.375 z-score
TTAGATATCGGGTTTCAATTAGTGCTA: 3.2 z-score
GAGGGTATCGGTCTCGGGACGTGCTAG: 3.31 z-score
TTAGGTATCGGGTTGCGGTTAGTGCTA: 3.82 z-score
CATCCTGAGTCAAGTCAAGTGTGCTAG: -0.419 z-score
GACGGTTGCGACTTTCGGGACGTGCTA: 4.92 z-score
GACGGACTGCTTCTCTTGACGTGCTAG: -0.353 z-score
TTAGATATCGGGTATCGATTAGTGCTA: 5.54 z-score
GACGATTTCGGGTATTGAGACGTGCTA: 3.99 z-score
TCAAGTCTGAGATCCAGACTGTGCTAG: -0.329 z-score
GACGGTTTCGGTTTCGAGACGTGCTAG: 10.9 z-score
TCAATTGTGGGTCTTGCACTGTGCTAG: -0.0641 z-score
GAAATTTTTTTTCTAACTAAGTGCTAG: 1.63 z-score

Set 4 — technique: DHFR PCA, deep sequencing; sample: yeast; added: (+)-ABA 2500 µM; reference: wild-type fitted maximum; direction: higher = stronger binding; endpoint: relative binding score
Target: ABI1, truncated, D143A, DHFR fusion (Arabidopsis thaliana)
Setting: methotrexate growth selection, single substitutions
Starting sequence: PYL1, truncated, DHFR fusion (Arabidopsis thaliana); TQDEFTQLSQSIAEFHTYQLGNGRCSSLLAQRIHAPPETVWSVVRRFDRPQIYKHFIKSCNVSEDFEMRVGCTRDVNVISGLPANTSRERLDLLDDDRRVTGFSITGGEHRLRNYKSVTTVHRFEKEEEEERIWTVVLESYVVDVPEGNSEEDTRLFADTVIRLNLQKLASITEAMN; partner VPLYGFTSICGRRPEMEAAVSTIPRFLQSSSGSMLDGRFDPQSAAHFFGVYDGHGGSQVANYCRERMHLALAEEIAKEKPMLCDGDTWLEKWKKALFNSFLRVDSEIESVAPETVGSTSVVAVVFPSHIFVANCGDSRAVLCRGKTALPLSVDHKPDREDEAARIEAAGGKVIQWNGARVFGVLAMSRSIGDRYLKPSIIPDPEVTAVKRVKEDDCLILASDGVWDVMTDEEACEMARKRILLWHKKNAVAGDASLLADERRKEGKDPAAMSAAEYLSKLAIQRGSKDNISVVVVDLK
D153Q: 87.3%
H16K: 48.5%
E38Y: 76.9%
V136M: 91.2%
H122G: 86.4%
N61T: 99.3%
E64A: 94.4%
G107A: 98.2%
S59F: 90.1%
V100S: 91.7%
S26T: 95.5%
L29E: 62.7%
V62P: 85.5%
L8R: 86%
L94I: 110%

Set 5 — technique: RNA Bind-n-Seq; molecule type: RNA; sample: in vitro; concentration: 365 nM; reference: no-protein control; direction: higher = stronger binding; endpoint: RBNS enrichment (R)
Target: RNA binding protein fox-1 homolog 2, RRM domain, GST-SBP tag (RBFOX2, Homo sapiens, UniProt O43251-10, residues 100-194)
Setting: natural RNA segment, single round, ends assumed
All sequences stand within: GGGAGUUCUACAGUCCGACGAUC … UGGAAUUCUCGGGUGCCAA
Residues (chain): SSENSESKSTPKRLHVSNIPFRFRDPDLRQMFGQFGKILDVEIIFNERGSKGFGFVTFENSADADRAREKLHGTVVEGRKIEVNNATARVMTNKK
CUCAUCCUCUUCUGAGACUGUUGAUUUUAAACACUUGAUUGUGAACGAAGAGCUUCUAUGAAAACCCUCACCUUUCCAUGUCCCAAAAACCAACACAAGUCCCUGGGGCG: 0.205
CAGCCACAUGUCACCUGUAGGUAGAAGUAAACUCUGCAGUGCAGCUUCUGCUCUUGGCCCCUCUGGCCAGGGCCCCUGUGGCUUCCUGCACACUGGACAGGUGACUGUAU: 0.309
UGCCGACUGAAGAGUGUGGGAUUUCCGAGGCCCAGGUGAGCACGUCCAUCUCAGGAGGCGUGGAGGGAAAAGACAUGUCAUGAAGGGUUUUUUUUAUGUGACUGAUUUUU: 0.697
GAGCCCUCCUUGAACUGACCUUUGAUUGGUUUCUGCUUCAACUACCAAAAUGUUAUCUCCACUUCCCCCUCACCCGUAGAGGAUCCUGGCCACAGACAGUUUCAAGUAGU: 0.528
AGAUAUAUUAGCACAGCCUGCCUUCUGCUGCACAACGCCUUAGAGACCCGGCCUUUCAAUGAGCUUAGCUUGUGCUCUGUUUCUGCUCUCUUAGGUCUAAACUAUGGUGU: 4.27
UGUCUAUAAGCUCAUCACAGCCUAGAGUUAAGUAAAGUCAAUUCACAGAAGCACAAUUUUGCCCUUUGCGAGACAUUGUUGCCUCUAUCUAGUCCUACAAGUAGGGUUUU: 0.251
AAGACUAUUGAAGACUCCAUUGCCAAACCAUGGCCUUUCCUCAGUGUUGUAAGGCCUAUGCCAAGGAUAAAGGAAGGGUAUGCCUUUGGGUACUCCAGGCACACACCUUU: 0.341
CUUCCUUUCUUGGGGGAUGGGCCUUGCCCUCUUCUCUUUUCCCUUCCUGUACCUUUGACUAACGCUCAGCUUCCGGGCCUGCAUGCAGUAGACAGAAGAGGAAGAAAGAA: 4.89
UUUUCUCUUGACUCCUCCUUUUAGGAUGUCCAGAUGUAAAAAAAAAAAAAAAAAAAAGAAAAAAAGAAAAAAAAAAGAAAACAGCUGCAGUUCAGUACAACUGCUCUUUU: 0.852
CCACUUGUCAAGAUUUCCCCUUUAGCGUGCUUGCUCCUCACCCCACCUGUACCUCCCUAUGUCCCCAUCCUUGCCCAGUCUCGACGUGCACCAAGGGCACAAGAGUGGCA: 2.3
GAUAAACAAACUUCUCAAGCAAAAAGAAAAGAAAAAUGAGUAGUGUGGCUGCCGCGGAGUGUGCCCUGGCCCUGGGCACUGAAGUGUUACAGUGGCUCGUUGCUUCCCUC: 0.342
UCAAUUAAUAGAUUAAUCCAGAGACAGGAAGGAGGAAACGAAAGCUAGAGCCUCUUUGUGACUCCACCAACUCCUUCUUGUCUCCUUUUAUUGAAGAGUCCGCACACAUA: 0.376
